Measured values pooled from the literature.
Compare with care: the assays were run in different laboratories. Numbers after ± are the reported error.
CHRM5: Muscarinic acetylcholine receptor M5 (CHRM5, Homo sapiens, UniProt P08912)
Sequence of UniProt P08912 (whole entry, looked up): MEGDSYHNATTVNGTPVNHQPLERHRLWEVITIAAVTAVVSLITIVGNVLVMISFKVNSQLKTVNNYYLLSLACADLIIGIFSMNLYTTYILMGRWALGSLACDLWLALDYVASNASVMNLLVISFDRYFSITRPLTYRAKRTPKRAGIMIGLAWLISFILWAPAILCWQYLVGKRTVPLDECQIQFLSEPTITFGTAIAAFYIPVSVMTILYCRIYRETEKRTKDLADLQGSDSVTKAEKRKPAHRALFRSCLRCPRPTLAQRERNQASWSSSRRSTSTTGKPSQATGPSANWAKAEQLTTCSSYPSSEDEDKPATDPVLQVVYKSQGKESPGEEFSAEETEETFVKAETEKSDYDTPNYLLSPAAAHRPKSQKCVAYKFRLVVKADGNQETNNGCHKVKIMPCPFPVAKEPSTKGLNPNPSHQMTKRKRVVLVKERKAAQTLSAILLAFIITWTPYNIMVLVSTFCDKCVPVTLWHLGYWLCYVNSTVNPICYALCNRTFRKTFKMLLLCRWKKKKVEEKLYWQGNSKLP
Sequence of UniProt P11229 (whole entry, looked up): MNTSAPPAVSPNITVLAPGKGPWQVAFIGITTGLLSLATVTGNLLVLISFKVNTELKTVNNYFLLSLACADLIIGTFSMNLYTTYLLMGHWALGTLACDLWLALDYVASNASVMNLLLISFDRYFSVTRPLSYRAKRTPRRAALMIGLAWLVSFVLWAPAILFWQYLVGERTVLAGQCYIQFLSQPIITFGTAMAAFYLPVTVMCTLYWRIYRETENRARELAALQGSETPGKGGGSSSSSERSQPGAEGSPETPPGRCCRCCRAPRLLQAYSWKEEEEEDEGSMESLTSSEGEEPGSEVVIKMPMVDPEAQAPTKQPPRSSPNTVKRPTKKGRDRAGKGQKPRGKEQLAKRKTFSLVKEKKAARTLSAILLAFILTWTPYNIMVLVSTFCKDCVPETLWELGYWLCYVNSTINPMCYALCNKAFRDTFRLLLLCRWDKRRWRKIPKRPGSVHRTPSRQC

Compound	target or system	assay	system	conditions	scale	measurement	result
Nc1ccn(C[C@@H](CO)OCP(=O)(O)OCCCS(=O)(=O)CCCCCCCCCCCCC2CCC2)c(=O)n1	human alphaherpesvirus 3	cytopathic effect	HFF, Ellen	–	–	EC50	0.01 ± 0.01 µM
COC(=O)C(C)NC(=O)C1OC(OC2C(OC3CCC4(C)C(CCC5(C)C4C(=O)C=C4C6CC(C)(C(=O)O)CCC6(C)CCC45C)C3(C)C)OC(C(=O)NC(C)C(=O)OC)C(O)C2O)C(O)C(O)C1O (stereo not drawn)	Epstein-Barr virus	EA/VCA antigen expression, indirect immunofluorescence	superinfected Raji cells	24 h	–	EC50	45 µM
Nc1ccn(C[C@@H](CO)OCP(=O)(O)OCCCS(=O)(=O)CCCCCCCCCCCCCC2CCC2)c(=O)n1	human alphaherpesvirus 3	cytopathic effect	HFF, Ellen	–	–	EC50	0.007 ± 0.01 µM
CCC(=O)NCc1cc(C(=O)NCCN2CCN(CCCCC3CCN(CC(=O)N4c5ccccc5NC(=O)c5ccccc54)CC3)CC2)cc(C(=O)NCCN2CCN(CCOC(=O)C3c4ccccc4Oc4ccccc43)CC2)c1	CHRM5	ligand displacement, radioligand	–	–	–	Ki	0.0427 µM
CCOC(=O)[C@@H](C)NP(=O)(CO[C@H](CF)CN1CNC(N)=NC1=O)N[C@H](C)C(=O)OCC	varicella-zoster virus	plaque formation	HEL, Oka, TK+	–	–	EC50	> 100 µM
C[C@H]1[C@H](C)CC[C@]2(CO)CC[C@]3(C)C(=CC[C@@H]4[C@@]5(C)CCCNC(C)(C)[C@@H]5CC[C@]43C)[C@H]12	human papillomavirus 11	viral replication, inhibitor, luciferase	C-33-A	–	–	EC50	> 1.2 µM
CCCCCCOc1ccc(C(=O)OCCN2CC=CCC2)cc1	CHRM5	inositol phosphate accumulation, antagonist, Schild analysis	CHO	together with: carbachol	–	Kb	2.09 µM
Nc1ccn(C[C@@H](CO)OCP(=O)(O)OCCCS(=O)(=O)CCCCCCCCCCC2CCC2)c(=O)n1	human alphaherpesvirus 2	cytopathic effect	HFF, G	–	–	EC50	0.29 ± 0.13 µM
CCCC[C@H](NC(=O)CNC(=O)CNC(=O)CN1CCN(CC(=O)O)CCN(CC(=O)O)CCN(CC(=O)O)CC1)C(=O)N[C@H]1CC(=O)NCCCC[C@@H](C(N)=O)NC(=O)[C@H](Cc2c[nH]c3ccccc23)NC(=O)[C@H](CCCNC(=N)N)NC(=O)[C@@H](Cc2ccccc2)NC(=O)[C@H](Cc2c[nH]cn2)NC1=O [lutetium-177 labelled]	–	–	C57 mouse, female, skin	intravenous, 0.037 MBq, 24 h	–	tissue uptake	0.33 ± 0.06 %ID/g
C=C(C)[C@@H]1CC[C@]2(C(=O)n3ccnc3)CC[C@]3(C)[C@H](CC[C@@H]4[C@@]5(C)CCCNC(C)(C)[C@@H]5CC[C@]43C)[C@@H]12	human papillomavirus 11	viral replication, inhibitor, luciferase	C-33-A	–	–	EC50	1.07 µM
COC(=O)C(CCC(=O)O)NC(=O)C1OC(OC2C(OC3CCC4(C)C(CCC5(C)C4C(=O)C=C4C6CC(C)(C(=O)O)CCC6(C)CCC45C)C3(C)C)OC(C(=O)NC(CCC(=O)O)C(=O)OC)C(O)C2O)C(O)C(O)C1O (stereo not drawn)	Epstein-Barr virus	viral genome copies, quantitative PCR	superinfected Raji cells	24 h	–	EC50	135 ± 35 µM
O=Cc1c(O)ccc2ccccc12	HUVEC	RNA sequencing, refers to: TMIE	–	75 µM, 24 h	relative to: DMSO	log2 fold change	3.59
Nc1nc2c(ncn2COCCOC(=O)[C@@H](N)CS)c(=O)[nH]1	human alphaherpesvirus 2	viral cytopathic effect, CPE inhibition	–	–	–	EC50	14.7 µM
CC1(C)NCCC[C@]2(C)[C@H]3CC=C4[C@@H]5C[C@@](C)(CO)CC[C@]5(C)CC[C@@]4(C)[C@]3(C)CC[C@@H]12	human papillomavirus 11	viral replication, inhibitor, luciferase	C-33-A	–	–	EC50	> 1.2 µM
Nc1nc2c(ncn2COCCOC(=O)CCC(=O)OC[C@H](N)C(=O)O)c(=O)[nH]1	human alphaherpesvirus 2	viral cytopathic effect, CPE inhibition	–	–	–	EC50	245 µM
COc1ccc2c(c1)C=C(C(=O)N1C[C@@H](C)O[C@@H](C)C1)Cn1c-2c(C2CCCCC2)c2ccc(C(=O)NS(=O)(=O)N(C)C)cc21	hepatitis C virus	replicon replication	Huh-7, genotype 1b Con1	–	–	EC50	0.04 µM
CC1(CCCCCCCCCCCCCCOCCCOP(=O)(O)CO[C@H](CO)Cn2ccc(N)nc2=O)COC1	human alphaherpesvirus 2	cytopathic effect	HFF, G	–	–	EC50	0.29 ± 0.17 µM

Compound	target or system	assay	system	conditions	scale	measurement	result
CC(C)CC(NC(=O)C1OC(OC2C(OC3CCC4(C)C(CCC5(C)C4C(=O)C=C4C6CC(C)(C(=O)NC(CC(C)C)C(=O)O)CCC6(C)CCC45C)C3(C)C)OC(C(=O)NC(CC(C)C)C(=O)O)C(O)C2O)C(O)C(O)C1O)C(=O)O (stereo not drawn)	Epstein-Barr virus	EA/VCA antigen expression, indirect immunofluorescence	superinfected Raji cells	24 h	–	EC50	~42 µM
COc1ccc(-c2nc(-c3ccccc3OC)[nH]c2-c2ccc(OC)cc2)cc1	Schistosoma mansoni	worm killing	mature worms, mixed sexes	96 h	–	EC50	> 100 µM
CC1(C)C2CC[C@]3(C)C(C(=O)C=C4[C@H]5C[C@@](C)(C(=O)O)CC[C@]5(C)CC[C@]43C)[C@@]2(C)CC[C@@H]1O[C@@H]1O[C@H](C(=O)O)[C@@H](O)[C@H](O)[C@H]1O[C@@H]1O[C@H](C(=O)O)[C@@H](O)[C@H](O)[C@H]1O (single isomer, unassigned)	Epstein-Barr virus	EA/VCA antigen expression, indirect immunofluorescence	superinfected Raji cells	24 h	–	EC50	50 ± 8.33 µM
CCCCOc1ccc(C(=O)OCCN2CC=CCC2)cc1	CHRM5	inositol phosphate accumulation, antagonist, Schild analysis	CHO	together with: carbachol	–	Kb	19.5 µM
O=C1Nc2ccccc2N(C(=O)CN2CCC(CCCCNCCCCC3CCN(CCCN4C(=O)CCc5ccccc54)CC3)CC2)c2ccccc21	CHRM1 (Homo sapiens, UniProt P11229)	ligand displacement, radioligand	–	–	–	Ki	0.00398 µM
CNC(=O)c1c(F)cccc1Nc1nc(Nc2cc3c(cc2OC)CCN3C(=O)CN(C)C)nc2[nH]ccc12	Leishmania major	parasite growth	–	intracellular, amastigote	–	EC50	> 15.8 µM
N=C(N)NCCC[C@@H]1NC(=O)[C@H](CCCCNC(=O)CNC(=O)CNC(=O)CNC(=O)CC[C@H](NC(=O)CNC(=O)CNC(=O)CNC(=O)CC[C@H](NC(=O)CN2CCN(CC(=O)O)CCN(CC(=O)O)CCN(CC(=O)O)CC2)C(=O)NCC(=O)NCC(=O)NCC(=O)N[C@@H](CCC(=O)NCC(=O)NCC(=O)NCC(=O)NCCCC[C@@H]2NC(=O)[C@@H](Cc3ccccc3)NC(=O)[C@H](CC(=O)O)NC(=O)CNC(=O)[C@H](CCCNC(=N)N)NC2=O)C(=O)NCC(=O)NCC(=O)NCC(=O)NCCCC[C@@H]2NC(=O)[C@@H](Cc3ccccc3)NC(=O)[C@H](CC(=O)O)NC(=O)CNC(=O)[C@H](CCCNC(=N)N)NC2=O)C(=O)NCC(=O)NCC(=O)NCC(=O)NCCCC[C@@H]2NC(=O)[C@@H](Cc3ccccc3)NC(=O)[C@H](CC(=O)O)NC(=O)CNC(=O)[C@H](CCCNC(=N)N)NC2=O)NC(=O)[C@@H](Cc2ccccc2)NC(=O)[C@H](CC(=O)O)NC(=O)CNC1=O [indium-111 labelled]	–	–	female athymic nu/nu mice, liver	intravenous, 4 h	–	tissue uptake	3.05 ± 0.14 %ID/g
Cn1c(-c2ccccc2)c(C2CCCCC2)c2ccc(C(=O)NC3(C(=O)Nc4ccc(/C=C/C(=O)O)cc4)CCCC3)cc21	hepatitis C virus	replicon replication	Huh-7, genotype 1b Con1	–	–	EC50	0.1 µM
COc1ccc(S(=O)(=O)NCc2c[nH]nc2-c2cccs2)cc1	Plasmodium falciparum	parasite growth	–	–	–	EC50	0.117 µM
CC1(C(=O)O)CCC2(C)CCC3(C)C(=CC(=O)C4C5(C)CCC(OC6OC(C(=O)NC(CCCCNC(=O)OCc7ccccc7)C(=O)O)C(O)C(O)C6OC6OC(C(=O)NC(CCCCNC(=O)OCc7ccccc7)C(=O)O)C(O)C(O)C6O)C(C)(C)C5CCC43C)C2C1 (stereo not drawn)	Epstein-Barr virus	viral genome copies, quantitative PCR	superinfected Raji cells	24 h	–	EC50	> 1000 µM
Cc1cc(-c2ccc(NC(=O)[C@H](CCCCNC(=O)CCOCCOCCC(=O)N[C@H](Cc3ccccc3)C(=O)N[C@H]3CSSC[C@@H](C(=O)N[C@H](C(=O)O)[C@@H](C)O)NC(=O)[C@H]([C@@H](C)O)NC(=O)[C@H](CCCCN)NC(=O)[C@@H](Cc4c[nH]c5ccccc45)NC(=O)[C@H](Cc4ccc(O)cc4)NC3=O)NC(=O)CN3CCN(CC(=O)O)CCN(CC(=O)O)CCN(CC(=O)O)CC3)c(C)c2)ccc1N=Nc1ccc2c(S(=O)(=O)O)cc(S(=O)(=O)O)c(N)c2c1O [lutetium-177 labelled]	–	–	metastatic NET patients, lymph node metastases	–	–	absorbed dose	1.69 ± 0.64 Gy/GBq
CC1(C)CC[C@]2(CO)CC[C@]3(C)C(=CC[C@@H]4[C@@]5(C)CCCNC(C)(C)[C@@H]5CC[C@]43C)[C@@H]2C1	human papillomavirus 11	viral replication, inhibitor, luciferase	C-33-A	–	–	EC50	> 0.24 µM
CC1(CCCCCCCCCCCCOCCCOP(=O)(O)CO[C@H](CO)Cn2ccc(N)nc2=O)COC1	human alphaherpesvirus 2	cytopathic effect	HFF, G	–	–	EC50	0.29 ± 0.13 µM
[64Cu+2].c1cnc(CNCc2ccc(CN3CCCN4CCNCCCN(CC4)CC3)cc2)nc1	CXCR4	–	NOD/SCID mouse, U87 and U87-stb-CXCR4 xenografts, spleen	iv, 90 min, ex vivo	–	tissue uptake	15 ± 2.15 %ID/g
CC1(CCCCCCCCCCOCCCOP(=O)(O)CO[C@H](CO)Cn2ccc(N)nc2=O)COC1	human alphaherpesvirus 2	cytopathic effect	HFF, G	–	–	EC50	0.01 ± 0.01 µM
COC(=O)C1(C)CCC2(C)CCC3(C)C(=CC(=O)C4C5(C)CCC(OC6OC(C(=O)NN)C(O)C(O)C6OC6OC(C(=O)NN)C(O)C(O)C6O)C(C)(C)C5CCC43C)C2C1 (stereo not drawn)	Epstein-Barr virus	viral genome copies, quantitative PCR	superinfected Raji cells	24 h	–	EC50	> 1000 µM

Some of these lines once more:
Compound	target or system	assay	system	conditions	scale	measurement	result
CC1(C)C2CC[C@]3(C)C(C(=O)C=C4[C@H]5C[C@@](C)(C(=O)O)CC[C@]5(C)CC[C@]43C)[C@@]2(C)CC[C@@H]1O[C@@H]1O[C@H](C(=O)O)[C@@H](O)[C@H](O)[C@H]1O[C@@H]1O[C@H](C(=O)O)[C@@H](O)[C@H](O)[C@H]1O (single isomer, unassigned)	Epstein-Barr virus	EA/VCA antigen expression, indirect immunofluorescence	superinfected Raji cells	24 h	–	EC50	50 ± 8.33 µM
CCCCOc1ccc(C(=O)OCCN2CC=CCC2)cc1	CHRM5	inositol phosphate accumulation, antagonist, Schild analysis	CHO	together with: carbachol	–	Kb	19.5 µM
O=C1Nc2ccccc2N(C(=O)CN2CCC(CCCCNCCCCC3CCN(CCCN4C(=O)CCc5ccccc54)CC3)CC2)c2ccccc21	CHRM1 (Homo sapiens, UniProt P11229)	ligand displacement, radioligand	–	–	–	Ki	0.00398 µM
CNC(=O)c1c(F)cccc1Nc1nc(Nc2cc3c(cc2OC)CCN3C(=O)CN(C)C)nc2[nH]ccc12	Leishmania major	parasite growth	–	intracellular, amastigote	–	EC50	> 15.8 µM
